Published values gathered from unrelated publications.
Protocols differ between the studies behind these lines.
Target: Casein kinase I isoform delta (CSNK1D, Homo sapiens, UniProt P48730)
Sequence of UniProt P48730 (whole entry, looked up): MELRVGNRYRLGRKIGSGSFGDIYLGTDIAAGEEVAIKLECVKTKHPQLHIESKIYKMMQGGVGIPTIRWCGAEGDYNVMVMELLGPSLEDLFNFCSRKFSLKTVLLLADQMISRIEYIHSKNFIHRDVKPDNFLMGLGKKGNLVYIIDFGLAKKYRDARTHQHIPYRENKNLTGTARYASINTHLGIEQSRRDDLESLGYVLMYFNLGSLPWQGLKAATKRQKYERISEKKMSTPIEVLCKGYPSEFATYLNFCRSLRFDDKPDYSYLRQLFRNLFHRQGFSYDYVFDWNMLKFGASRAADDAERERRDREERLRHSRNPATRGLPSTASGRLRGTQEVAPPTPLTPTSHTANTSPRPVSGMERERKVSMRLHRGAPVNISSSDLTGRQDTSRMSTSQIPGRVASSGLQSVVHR

COc1cc(F)ccc1-c1ncnc(Nc2cccc(C[S@](C)(=N)=O)c2)n1  remaining activity (kinase activity; 10 µM, added: 10 µM ATP): 97%
CNc1ncc2c(/C=C/C(=O)N3CCC(OC)CC3)nn(Cc3cccc(C(F)(F)F)c3)c2n1  remaining activity (kinase activity, inhibitor; 1 µM; relative to: untreated control): 102%
Cn1c(=O)n(-c2ccc(C(C)(C)C#N)cc2)c2c3cc(-c4cnc5ccccc5c4)ccc3ncc21  remaining activity (enzyme activity; 10 µM): 96%
Cc1ccc(-n2nc(C)c3c(N)nc(N)nc32)c(Cl)c1  remaining binding (KinomeScan competition; 7.5 µM): 16%
O=C1NC(=O)/C(=C/c2ccc(-c3ccc(F)cc3O)o2)S1  remaining activity (enzyme activity; 10 µM): 85%
Fc1ccc(-c2ncn(-c3ccc(-c4ccccc4)cc3)c2-c2ccncc2)cc1  inhibition (inhibitor; 1 µM): 6%
Nc1nc(Nc2ccccc2)sc1C(=O)c1c(F)cccc1F  remaining activity (enzyme activity, inhibitor; 10 µM): 13%
Oc1ccc(-c2nc(-c3ccncc3)c(-c3ccc(F)cc3)[nH]2)cc1  inhibition (inhibitor; 1 µM): 57%
CC(C)(C)C(=O)c1sc(NC2CCCCC2)nc1N  remaining activity (enzyme activity, inhibitor; 10 µM): 74%
COC(=O)c1ccc(-c2nc(-c3cccc(C)c3)c(-c3ccncc3)[nH]2)cc1  inhibition (kinase activity; 1 µM): 10%
Cc1cc(Nc2cc(N3CCN(C)CC3)nc(Sc3ccc(NC(=O)C4CC4)cc3)n2)[nH]n1  remaining activity (kinase activity, KinaseProfiler; 0.03 µM, species human; relative to: control): 121%
